Published values collected from several papers.
Lines come from different studies, so protocols differ. “And” joins repeats or separate records; there may be more than shown.
Target: Procathepsin L (CTSL, Homo sapiens, UniProt P07711)
Sequence of UniProt P07711 (whole entry, looked up): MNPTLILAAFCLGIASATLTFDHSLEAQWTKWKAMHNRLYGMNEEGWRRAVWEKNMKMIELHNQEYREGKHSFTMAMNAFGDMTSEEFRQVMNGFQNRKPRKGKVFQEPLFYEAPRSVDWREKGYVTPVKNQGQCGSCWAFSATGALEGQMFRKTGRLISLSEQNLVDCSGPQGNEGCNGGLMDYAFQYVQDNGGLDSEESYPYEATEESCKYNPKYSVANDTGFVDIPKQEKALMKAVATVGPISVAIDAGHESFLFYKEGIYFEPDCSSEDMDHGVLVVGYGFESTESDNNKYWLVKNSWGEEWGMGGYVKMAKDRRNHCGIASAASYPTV
Observed: enzyme activity
Action: inhibitor

SMILES	technique	pH	quantity	value
N=C(N)NCCC[C@H](NC(=O)[C@@H]1CCCN1C(=O)[C@H](N)Cc1ccccc1)C(=O)CCl	fluorescence	–	IC50	19 nM
CCC1c2ccsc2CCN1C(=O)Cn1nnc2ccccc21 (stereo not shown)	FRET	–	IC50	> 100000 nM
CC(=O)NCCCC[C@H](NC(=O)[C@H](CCCNC(=N)N)NC(=O)[C@@H]1CCCN1C(=O)[C@H](C)NC(=O)[C@@H](N)CCCCN)C(=O)N[C@@H](CCC(N)=O)C(=O)N[C@@H](CC(C)C)C(=O)N[C@@H](C)C(=O)N[C@H](C(=O)N[C@@H](CCCCN)C(=O)N[C@@H](C)C(=O)N[C@@H](C)C(=O)N[C@@H](CCCNC(=N)N)C(=O)N[C@@H](CCCCN)C(=O)N[C@@H](CO)C(=O)N[C@@H](C)C(=O)N1CCC[C@H]1C(=O)N[C@@H](C)C(=O)O)[C@@H](C)O	fluorescence	pH 6	Ki	10700 nM
COc1cccc2[nH]c(C(=O)N[C@@H](CC(C)C)C(=O)N[C@@H](C[C@@H]3CCNC3=O)C(=O)CO)cc12	–	pH 5.5	IC50	456 nM and ~500 nM
CCCC(NC(=O)C(CC(C)C)NC(=O)OCc1ccccc1)C(=O)C(=O)NCc1ccccn1 (stereo not shown)	–	pH 5.5	IC50	1.62 nM
CCC[C@H](NC(=O)[C@H](CC(C)C)NC(=O)OCc1ccccc1)C(=O)C(=O)NCc1ccccn1	–	pH 5.5	IC50	0.69 nM and < 1 nM
CC1CCc2c(sc3ncnc(Sc4nnc(CN5CCCC5)o4)c23)C1 (stereo not shown)	FRET	–	IC50	> 100000 nM
CC(C)C[C@@H]1NC(=O)[C@H](C(C)C)NC(=O)[C@H](C)NC(=O)[C@H](Cc2ccc(O)cc2)NC(=O)[C@H](CCC(N)=O)NC(=O)[C@H](CC(C)C)NC(=O)[C@@H](Cc2ccc(O)cc2)NC(=O)CSC[C@@H](C(N)=O)NC(=O)[C@H](CCC(=O)O)NC(=O)[C@H](CCCNC(=N)N)NC(=O)[C@H](CCCNC(=N)N)NC(=O)[C@H](CCCCN)NC(=O)[C@H](Cc2c[nH]cn2)NC(=O)[C@H](CCCNC(=N)N)NC1=O	–	–	IC50	10900 nM
CC(C)C[C@H](NC(=O)[C@H](CCC(N)=O)NC(=O)[C@H](CCCCN)NC(=O)[C@H](CCCNC(=N)N)NC(=O)[C@@H]1CCCN1C(=O)[C@H](C)NC(=O)[C@@H](N)CCCCN)C(=O)N[C@@H](C)C(=O)N[C@H](C(=O)N[C@@H](CCCCN)C(=O)N[C@@H](C)C(=O)N[C@@H](C)C(=O)N[C@@H](CCCNC(=N)N)C(=O)N[C@@H](CCCCN(C)C)C(=O)N[C@@H](CO)C(=O)N[C@@H](C)C(=O)N1CCC[C@H]1C(=O)N[C@@H](C)C(=O)O)[C@@H](C)O	fluorescence	pH 6	Ki	4550 nM
C=CCn1c(C)cc(C(=O)COn2nnc3ccc(S(=O)(=O)N(C)C)cc32)c1C	FRET	–	IC50	> 100000 nM
